{"data": "Measured values of several laboratories", "note": "Each line is one published result; not all experiments were run side by side. Several values in a cell are separate wells, animals, samples, runs or records. Numbers after ± are the reported error."}
{"SMILES": "CCn1ccc2nc(-c3ccccn3)nc(N3CCC(c4ccccn4)C3)c21 (stereo not shown)", "test system": "Japanese Pharmacopoeia disintegration test solution 2", "setting": "pH 6.8", "measurement": "kinetic solubility", "result": "0.088 mg/mL"}
{"SMILES": "O=C(c1cc(Cc2n[nH]c(=O)c3ccccc23)ccc1F)N1CCN(C(=O)C2CC2)CC1", "test system": "human", "setting": "oral, dose not given, reverse dosing order", "measurement": "clearance change", "result": "28%"}
{"SMILES": "C[C@@H]1COCCN1c1cc(C2([S@](C)(=N)=O)CC2)nc(-c2cc[nH]c3nccc2-3)n1", "test system": "Japanese advanced solid tumour patients", "setting": "oral, 240 mg twice daily, CTCAE grade ≥3", "measurement": "Fatigue incidence", "result": "0%"}
{"SMILES": "O=C(Nc1cnccc1Cl)N1CCN(Cc2ccc3c(c2)OC(F)(F)O3)CC1", "test": "multiple ascending dose", "test system": "young men", "setting": "25 mg, treatment-emergent adverse events", "measurement": "back pain incidence", "result": "33.3%"}
{"SMILES": "COc1ccc2c(=O)n(C)c(-c3ccccc3)nc2c1", "test system": "male Sprague-Dawley rat, bladder", "setting": "oral, 30 mg/kg, 0.5 h", "measurement": "tissue concentration", "result": "104 ng/g"}
{"SMILES": "CNCc1ccc(-c2[nH]c3cc(F)cc4c3c2CCNC4=O)cc1", "test system": "human patients", "setting": "oral, 480 mg twice daily, all grades", "measurement": "dyspnoea incidence", "result": "33.3%"}
{"SMILES": "O=C(N[C@H](Cc1c[nH]c2ccccc12)C(=O)Nc1ccncc1)c1ccc(-c2ccc(F)c(Cl)c2)cc1F", "test system": "Swiss Webster mouse, female, plasma", "setting": "oral, 50 mg/kg, 2 h, 20% HPβCD vehicle", "measurement": "concentration", "result": "1180 nM"}
{"SMILES": "Cc1ccc([C@@H]2O[C@H](CO)[C@@H](O)[C@H](O)[C@H]2O)cc1Cc1ccc(-c2ccc(F)cc2)s1", "test": "item: inorganic phosphorus", "test system": "Japanese type 2 diabetes patients", "setting": "200 mg, day 18, 24 h urine collection", "scale": "baseline: baseline", "measurement": "urinary phosphate excretion change", "result": "57.9 mg"}
{"SMILES": "CCCc1ccc(-c2ccc(-c3cc(F)c(F)c(F)c3)c(F)c2)cc1", "test system": "rat, placenta", "setting": "1000 ng/mL in perfusate, middle dose, mixture of 21 LCMs", "measurement": "median placental accumulation", "result": "4.18 ng/g"}
{"SMILES": "C=CCN1CC(=O)N2[C@@H](Cc3ccc(O)cc3F)C(=O)N(Cc3cccc(N4CC(N5CCN(CC)CC5)C4)n3)C[C@@H]2N1C(=O)NCc1ccccc1", "test system": "advanced solid tumour patients", "setting": "oral, 100 mg twice daily, grade ≥3, dose-escalation", "measurement": "treatment-related nausea", "result": "0%"}
{"SMILES": "N#Cc1ccc2c(c1)[C@H]1CCCN(C(=O)c3ccc4[nH]cnc4c3)[C@H]1C2", "test system": "human", "setting": "360 mg, day 7", "measurement": "median ACTH level", "result": "7.5 pmol/L"}
{"SMILES": "CN(CCCN1CCN(C(=O)CN2CCN(CC(=O)[O-])CCN(CC(=O)[O-])CCN(CC(=O)[O-])CC2)CC1)c1ccc2nccc(C(=O)NCC(=O)N3CC(F)(F)C[C@H]3C#N)c2c1.[68Ga+3]", "test system": "mouse HT-1080-hFAP and HT-1080 xenografts, HT-1080 wild-type tumour", "setting": "intravenous, 500 pmol, 1 h", "measurement": "uptake", "result": "0.6 ± 0.1 %IA/g"}
{"SMILES": "COc1cc2nccc(Oc3ccc(NC(=O)C4(C(=O)Nc5ccc(F)cc5)CC4)cc3)c2cc1OC", "test system": "patients without relevant toxicity, plasma", "setting": "oral, dose not given, mean", "measurement": "Ctrough", "result": "574 ng/mL"}
{"SMILES": "CCOc1c([C@H](C)n2nc(C)c3c(N)ncnc32)cc(Cl)c(F)c1[C@@H]1CNC(=O)C1", "test": "ECG", "test system": "previously treated B-cell malignancy patients", "setting": "oral, 5 mg once daily, baseline below thresholds", "measurement": "observations with HR above 100 bpm", "result": "0%"}
{"SMILES": "CCCCC/C=C\\C/C=C\\CCCCCCCC(=O)O.Cc1cc(/C=C/C#N)cc(C)c1Nc1ccnc(Nc2ccc(C#N)cc2)n1", "test system": "Labrasol ALF", "measurement": "kinetic solubility", "result": "~150 mg/mL"}
{"SMILES": "O=C(Nc1nc2cccc(-c3ccc(CN4CCS(=O)(=O)CC4)cc3)n2n1)C1CC1", "test": "item: diarrhoea", "test system": "human rheumatoid arthritis patients", "setting": "oral, 30 mg once daily, 4 weeks, regardless of relatedness", "measurement": "treatment-emergent adverse events", "result": "5.9%"}
{"SMILES": "CCCOc1ccc(NC(=O)CN2CCN(C)CC2)cc1-c1nc(CC)c(CC)c(=O)[nH]1", "test": "least-squares mean difference", "test system": "healthy Chinese men", "setting": "10 mg, with: alcohol 0.5 g/kg", "scale": "baseline: compound plus placebo", "measurement": "AUEC(0-4 h) pulse rate difference", "result": "18.2 h·bpm"}
{"SMILES": "COc1cc(C(=O)NC2CCN(C)CC2)c(F)cc1Nc1ncc(C(F)(F)F)c(Oc2cccc3c2C(=O)N(C)C3)n1", "test system": "human patients, plasma", "setting": "oral, 10 mg once daily repeated, geometric mean", "measurement": "dose-normalised Cmax at steady state", "result": "5.92 nmol/L per mg"}
{"SMILES": "COc1cc([C@H]2Oc3cc([C@H]4Oc5cc(O)cc(O)c5C(=O)[C@@H]4O)ccc3O[C@@H]2CO)ccc1O", "test system": "FVB wild-type mice, plasma", "setting": "oral gavage, 500 mg/kg silymarin, geometric mean", "measurement": "AUC(0-4h)", "result": "0.36 µM·h"}
{"SMILES": "COc1ccccc1NC(=O)CSc1nnc(-c2ccccc2Cl)n1-c1ccccc1", "test system": "aqueous buffer", "setting": "pH 7.4", "measurement": "thermodynamic solubility", "result": "< 7.14 µM"}
{"SMILES": "Cn1cc(Nc2nccc(-c3ccc4c(c3)CN(C3COC3)CC[C@H]4NC(=O)c3cn(C(C)(C)C)nn3)n2)cn1", "test system": "human, whole blood", "setting": "150 mg twice daily, day 14", "scale": "baseline: pre-dose baseline", "measurement": "NKT cell count change", "result": "-7.06%"}
{"SMILES": "CC(C)c1nc(N(C)S(C)(=O)=O)nc(-c2ccc(F)cc2)c1/C=C/[C@@H](O)C[C@@H](O)CC(=O)O", "test system": "human", "setting": "oral, 10 mg, compound alone", "measurement": "participants with TEAE muscle spasms", "result": "0%"}
{"SMILES": "CCC(=O)O[C@]1(C(=O)SCF)[C@H](C)C[C@H]2[C@@H]3C[C@H](F)C4=CC(=O)C=C[C@]4(C)[C@@]3(F)[C@@H](O)C[C@@]21C", "test": "three-compartment model", "test system": "rat, plasma", "setting": "intravenous, 90 nmol/kg", "measurement": "rapid compartment volume", "result": "2.8 ± 1 L/kg"}
{"SMILES": "Cc1ccc(Sc2ccccc2N2CCNCC2)c(C)c1", "test": "item: ALT increased", "test system": "healthy adult men", "setting": "oral, 10 mg daily, 12 days", "measurement": "participants with TEAE", "result": "0%"}
{"SMILES": "CCCCOc1ccc([C@H]2CC[C@H](CCC)CC2)c(F)c1F", "test system": "rat, placenta", "setting": "5000 ng/mL in perfusate, high dose, mixture of 21 LCMs", "measurement": "median placental accumulation", "result": "219 ng/g"}
{"SMILES": "CN1CCC[C@H](CN2c3ccccc3Sc3ccccc32)C1.Cl", "test system": "fasted female ICR mouse, liver", "setting": "oral, 16 mg/kg", "measurement": "Tmax", "result": "0.25 h"}
{"SMILES": "CSc1ccccc1C(=O)NCCn1cc(C(=O)NCc2cccc(C)n2)c(=O)c2cc3c(cc21)OC(F)(F)O3", "test system": "Sprague-Dawley rat, male, plasma", "setting": "intramuscular, 30 mg/kg of parent compound", "measurement": "Cmax", "result": "8.94 ± 3.44 ng/mL"}
{"SMILES": "Cc1nc2cccc(OCC(C)(C)C(=O)NC(C)C)c2c(N)c1C(=O)O", "test system": "Sprague-Dawley rat, plasma", "setting": "intravenous, 1 mg/kg, day 1", "scale": "baseline: female over male", "measurement": "AUClast ratio", "result": "1.25 ± 0.41"}
{"SMILES": "CCN1/C(=C/C(C)=O)Sc2ccc(F)cc21", "test system": "cynomolgus monkey", "setting": "oral, 100 mg/kg, 1 h post-dose", "scale": "baseline: pre-dose", "measurement": "QTc interval change", "result": "101 ± 3.7%"}
{"SMILES": "N#Cc1cc(NC(=O)C(=O)O)c(Cl)c(NC(=O)C(=O)O)c1", "test system": "excised Bama miniature pig skin", "setting": "24 h", "measurement": "skin retention", "result": "1.67 ± 0.152 µmol/cm²"}
{"SMILES": "COc1ccc([C@@H](O)c2cc(-c3ncnc4cc(N5CCOCC5)ccc34)c(F)cc2Cl)nn1", "test system": "locally advanced rectal cancer patients", "setting": "150 mg, with: capecitabine and radiotherapy", "measurement": "drug-related proctitis incidence", "result": "17%"}
{"SMILES": "CCCCOC(=O)N1CCN(C(=O)[C@H](CP(=O)(O)O)NC(=O)c2cc(N3CC[C@H](OC)C3)nc(-c3ccccc3)n2)CC1", "test system": "human", "setting": "subcutaneous, 8 mg, 1 h post-dose", "scale": "baseline: baseline", "measurement": "change in PR interval", "result": "1 ± 13.2 ms"}
{"SMILES": "COc1ccc2c(c1)CN(C(=O)CCN1CCC(Cc3ccccc3)CC1)CC[S@@+]2[O-]", "test": "telemetry", "test system": "conscious male beagle dogs", "setting": "intravenous, 8 mg/kg, 4 h", "measurement": "QTc interval", "result": "251 ± 4 ms"}
{"SMILES": "Cl.[2H]C([2H])([2H])CC(=O)c1cnc(NC(=O)C2CC2)cc1Nc1cccc(-c2ncn(C([2H])([2H])[2H])n2)c1OC", "test": "geometric mean", "test system": "human", "setting": "oral, 17.5 mg single dose, fasted, liquid", "measurement": "Vz/F", "result": "103 L"}
{"SMILES": "CCn1cc(C(=O)N2CCOCC2)c(=O)c2cc(NC3Cc4ccccc4C3)cnc21", "test system": "human, fed", "setting": "oral suspension, 600 mg single dose, arithmetic mean", "measurement": "half-life", "result": "6.13 h"}
{"SMILES": "CCc1c(-c2ccccc2)c(-c2ccccc2)nn1-c1ccccc1-c1cccc(OCC(=O)O)c1", "test system": "Sprague-Dawley rat", "setting": "intravenous, dose not given", "measurement": "AUC(all)", "result": "2390 ng·h/mL and 3090 ng·h/mL and 3250 ng·h/mL"}
{"SMILES": "c1csc(CNc2cc[nH]n2)c1", "test": "DNA damage, alkaline comet", "test system": "Hsd:ICR(CD-1) mice, male, liver", "setting": "oral gavage, 250 mg/kg/day, 3 days", "measurement": "tail DNA (mean)", "result": "2.4%"}
{"SMILES": "Cc1c(C(=O)O)ccc2c3n(nc12)[C@@H]1[C@H](C3)N(CC2CC2)[C@@]2(C(=O)Nc3cc(Cl)ccc32)[C@H]1c1cccc(Cl)c1F", "test system": "female BALB/c nude mice, plasma", "setting": "oral, 2 mg/kg once daily, 4 h, SJSA-1 tumour-bearing", "measurement": "plasma concentration", "result": "1710 nM and 2030 nM and 1910 nM and 1580 nM"}
{"SMILES": "Cn1cc([C@H]2C[C@H]3CSC(N)=N[C@@]3(c3ccc(F)cc3F)CO2)cn1", "test system": "male 129/SVE mouse, CSF", "setting": "subcutaneous, 50 mg/kg, 13 h", "measurement": "CSF concentration", "result": "89 nM"}
{"SMILES": "COc1cc2[nH]c(C)c(-c3cc4ccccc4s3)c(=O)c2cc1Cl", "setting": "pH 7.4", "measurement": "kinetic solubility", "result": "< 2 µM"}
{"SMILES": "COc1cc2nccc(Oc3ccc(NC(=O)c4cc5c(n(-c6ccccc6)c4=O)CCCC5=O)nc3)c2cc1OC", "test system": "human, relapsed/refractory AML", "setting": "oral, 3 mg once daily, grade ≥3, any causality", "measurement": "patients with Klebsiella sepsis", "result": "10%"}
{"SMILES": "NCCONC(=O)[C@@H]1CC[C@@H]2CN1C(=O)N2OS(=O)(=O)O", "test": "item: leading to dose reduction", "test system": "healthy Chinese men", "setting": "intravenous, 1 g, treatment-related", "measurement": "adverse event incidence", "result": "0%"}
{"SMILES": "COc1ncc(-c2nc3c(n2C(C)C)[C@H](c2ccc(Cl)cc2)N(c2cc(Cl)cn(C)c2=O)C3=O)c(OC)n1", "test system": "human patients, plasma", "setting": "oral, 30 mg, cycle 1 day 1, low-dose", "measurement": "median half-life", "result": "19.2 h"}
{"note": "A few entries again:"}
{"SMILES": "CCCc1ccc(-c2ccc(-c3cc(F)c(F)c(F)c3)c(F)c2)cc1", "test system": "rat, placenta", "setting": "1000 ng/mL in perfusate, middle dose, mixture of 21 LCMs", "measurement": "median placental accumulation", "result": "4.18 ng/g"}
{"SMILES": "CCCCC/C=C\\C/C=C\\CCCCCCCC(=O)O.Cc1cc(/C=C/C#N)cc(C)c1Nc1ccnc(Nc2ccc(C#N)cc2)n1", "test system": "Labrasol ALF", "measurement": "kinetic solubility", "result": "~150 mg/mL"}
{"SMILES": "CCn1ccc2nc(-c3ccccn3)nc(N3CCC(c4ccccn4)C3)c21 (stereo not shown)", "test system": "Japanese Pharmacopoeia disintegration test solution 2", "setting": "pH 6.8", "measurement": "kinetic solubility", "result": "0.088 mg/mL"}
